Assay results collected from several papers.
Each line is one published result; not all experiments were run side by side. “And” joins repeats or separate records; there may be more than shown. ± marks the error that the study gave.
CXCR4: C-X-C chemokine receptor type 4 (CXCR4, Homo sapiens, UniProt P61073)
Sequence of UniProt P61073 (whole entry, looked up): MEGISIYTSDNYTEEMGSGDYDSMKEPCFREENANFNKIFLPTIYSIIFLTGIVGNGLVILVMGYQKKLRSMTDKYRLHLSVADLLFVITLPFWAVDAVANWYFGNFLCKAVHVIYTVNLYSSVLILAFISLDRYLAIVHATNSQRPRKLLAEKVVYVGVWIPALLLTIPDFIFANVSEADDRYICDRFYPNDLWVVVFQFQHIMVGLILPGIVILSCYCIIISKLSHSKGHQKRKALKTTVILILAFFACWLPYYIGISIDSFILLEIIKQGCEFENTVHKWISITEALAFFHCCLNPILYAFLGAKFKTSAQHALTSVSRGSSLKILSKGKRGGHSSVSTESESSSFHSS
PARP1: Poly [ADP-ribose] polymerase 1 (PARP1, Homo sapiens, UniProt P09874)
Sequence of UniProt P09874 (whole entry, looked up): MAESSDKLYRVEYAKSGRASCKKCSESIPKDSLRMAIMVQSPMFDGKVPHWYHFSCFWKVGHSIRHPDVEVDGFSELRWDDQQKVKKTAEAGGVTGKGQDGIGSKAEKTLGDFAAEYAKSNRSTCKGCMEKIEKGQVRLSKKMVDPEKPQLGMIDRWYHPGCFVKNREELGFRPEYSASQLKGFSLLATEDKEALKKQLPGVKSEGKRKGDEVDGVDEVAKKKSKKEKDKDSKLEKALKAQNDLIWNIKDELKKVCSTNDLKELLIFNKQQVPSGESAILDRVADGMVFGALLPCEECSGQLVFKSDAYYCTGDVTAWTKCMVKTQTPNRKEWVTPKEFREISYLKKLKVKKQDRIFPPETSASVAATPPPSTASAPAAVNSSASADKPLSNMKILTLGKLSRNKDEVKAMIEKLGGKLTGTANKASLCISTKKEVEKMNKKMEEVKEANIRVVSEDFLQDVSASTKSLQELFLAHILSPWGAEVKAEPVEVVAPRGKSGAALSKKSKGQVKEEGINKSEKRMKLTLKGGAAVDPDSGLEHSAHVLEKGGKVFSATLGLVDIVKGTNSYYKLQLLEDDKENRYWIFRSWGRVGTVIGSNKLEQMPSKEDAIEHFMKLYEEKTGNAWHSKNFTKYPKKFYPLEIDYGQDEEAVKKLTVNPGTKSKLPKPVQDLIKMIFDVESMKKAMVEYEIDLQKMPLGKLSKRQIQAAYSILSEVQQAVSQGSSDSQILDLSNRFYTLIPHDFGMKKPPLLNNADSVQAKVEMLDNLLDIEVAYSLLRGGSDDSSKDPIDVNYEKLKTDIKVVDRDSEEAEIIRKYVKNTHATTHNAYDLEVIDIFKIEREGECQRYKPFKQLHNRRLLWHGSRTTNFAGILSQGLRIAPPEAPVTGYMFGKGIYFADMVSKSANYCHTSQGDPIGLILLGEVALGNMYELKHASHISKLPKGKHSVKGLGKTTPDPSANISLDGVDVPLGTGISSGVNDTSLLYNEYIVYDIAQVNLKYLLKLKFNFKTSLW
CYP1A2: Cytochrome P450 1A2 (CYP1A2, Homo sapiens, UniProt P05177)
Sequence of UniProt P05177 (whole entry, looked up): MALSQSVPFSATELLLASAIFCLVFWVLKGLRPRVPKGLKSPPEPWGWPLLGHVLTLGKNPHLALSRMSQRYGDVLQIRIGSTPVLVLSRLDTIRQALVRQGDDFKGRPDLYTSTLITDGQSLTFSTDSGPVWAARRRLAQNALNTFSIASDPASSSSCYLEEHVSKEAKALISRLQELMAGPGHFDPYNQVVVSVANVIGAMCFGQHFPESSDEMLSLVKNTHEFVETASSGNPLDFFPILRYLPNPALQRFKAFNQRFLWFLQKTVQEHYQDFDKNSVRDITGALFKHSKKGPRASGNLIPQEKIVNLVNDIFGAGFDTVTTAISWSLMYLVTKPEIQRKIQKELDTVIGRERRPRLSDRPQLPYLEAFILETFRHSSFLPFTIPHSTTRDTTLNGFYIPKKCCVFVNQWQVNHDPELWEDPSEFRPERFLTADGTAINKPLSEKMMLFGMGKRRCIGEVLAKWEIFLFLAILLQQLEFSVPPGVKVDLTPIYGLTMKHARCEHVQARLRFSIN
FAAH: Fatty-acid amide hydrolase 1 (FAAH, Homo sapiens, UniProt O00519)
Sequence of UniProt O00519 (whole entry, looked up): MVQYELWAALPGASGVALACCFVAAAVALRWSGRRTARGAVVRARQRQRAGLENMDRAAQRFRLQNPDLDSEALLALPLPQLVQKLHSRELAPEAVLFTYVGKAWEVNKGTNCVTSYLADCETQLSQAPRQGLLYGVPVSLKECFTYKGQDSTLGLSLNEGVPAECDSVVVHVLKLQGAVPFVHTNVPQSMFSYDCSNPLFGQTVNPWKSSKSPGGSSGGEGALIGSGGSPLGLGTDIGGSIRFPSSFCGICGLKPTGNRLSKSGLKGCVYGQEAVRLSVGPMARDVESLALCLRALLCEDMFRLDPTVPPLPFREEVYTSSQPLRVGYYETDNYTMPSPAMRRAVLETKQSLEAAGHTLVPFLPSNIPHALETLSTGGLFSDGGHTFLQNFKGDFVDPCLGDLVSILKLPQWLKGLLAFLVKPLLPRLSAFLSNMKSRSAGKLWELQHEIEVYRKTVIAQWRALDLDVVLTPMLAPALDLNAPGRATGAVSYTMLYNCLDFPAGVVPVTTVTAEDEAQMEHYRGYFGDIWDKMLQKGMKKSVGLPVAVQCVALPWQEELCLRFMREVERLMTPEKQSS
ABCC1: Multidrug resistance-associated protein 1 (ABCC1, Homo sapiens, UniProt P33527)
Sequence of UniProt Q86VL8 (whole entry, looked up): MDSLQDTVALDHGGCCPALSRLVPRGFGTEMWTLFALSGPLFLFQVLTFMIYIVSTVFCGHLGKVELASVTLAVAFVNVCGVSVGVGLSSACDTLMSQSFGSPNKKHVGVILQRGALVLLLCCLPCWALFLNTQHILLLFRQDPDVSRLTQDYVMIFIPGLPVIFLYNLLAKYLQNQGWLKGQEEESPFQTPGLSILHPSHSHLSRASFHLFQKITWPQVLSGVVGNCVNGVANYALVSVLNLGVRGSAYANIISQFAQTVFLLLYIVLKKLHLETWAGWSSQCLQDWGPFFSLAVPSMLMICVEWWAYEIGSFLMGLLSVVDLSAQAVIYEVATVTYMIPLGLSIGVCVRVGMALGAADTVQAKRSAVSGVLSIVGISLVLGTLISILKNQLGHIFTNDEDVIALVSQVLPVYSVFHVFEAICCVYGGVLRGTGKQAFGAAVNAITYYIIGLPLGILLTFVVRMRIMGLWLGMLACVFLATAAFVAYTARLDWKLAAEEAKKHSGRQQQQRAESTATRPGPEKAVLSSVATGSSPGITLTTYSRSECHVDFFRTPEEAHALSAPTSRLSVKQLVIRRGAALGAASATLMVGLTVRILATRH
Sequence of UniProt P33527 (whole entry, looked up): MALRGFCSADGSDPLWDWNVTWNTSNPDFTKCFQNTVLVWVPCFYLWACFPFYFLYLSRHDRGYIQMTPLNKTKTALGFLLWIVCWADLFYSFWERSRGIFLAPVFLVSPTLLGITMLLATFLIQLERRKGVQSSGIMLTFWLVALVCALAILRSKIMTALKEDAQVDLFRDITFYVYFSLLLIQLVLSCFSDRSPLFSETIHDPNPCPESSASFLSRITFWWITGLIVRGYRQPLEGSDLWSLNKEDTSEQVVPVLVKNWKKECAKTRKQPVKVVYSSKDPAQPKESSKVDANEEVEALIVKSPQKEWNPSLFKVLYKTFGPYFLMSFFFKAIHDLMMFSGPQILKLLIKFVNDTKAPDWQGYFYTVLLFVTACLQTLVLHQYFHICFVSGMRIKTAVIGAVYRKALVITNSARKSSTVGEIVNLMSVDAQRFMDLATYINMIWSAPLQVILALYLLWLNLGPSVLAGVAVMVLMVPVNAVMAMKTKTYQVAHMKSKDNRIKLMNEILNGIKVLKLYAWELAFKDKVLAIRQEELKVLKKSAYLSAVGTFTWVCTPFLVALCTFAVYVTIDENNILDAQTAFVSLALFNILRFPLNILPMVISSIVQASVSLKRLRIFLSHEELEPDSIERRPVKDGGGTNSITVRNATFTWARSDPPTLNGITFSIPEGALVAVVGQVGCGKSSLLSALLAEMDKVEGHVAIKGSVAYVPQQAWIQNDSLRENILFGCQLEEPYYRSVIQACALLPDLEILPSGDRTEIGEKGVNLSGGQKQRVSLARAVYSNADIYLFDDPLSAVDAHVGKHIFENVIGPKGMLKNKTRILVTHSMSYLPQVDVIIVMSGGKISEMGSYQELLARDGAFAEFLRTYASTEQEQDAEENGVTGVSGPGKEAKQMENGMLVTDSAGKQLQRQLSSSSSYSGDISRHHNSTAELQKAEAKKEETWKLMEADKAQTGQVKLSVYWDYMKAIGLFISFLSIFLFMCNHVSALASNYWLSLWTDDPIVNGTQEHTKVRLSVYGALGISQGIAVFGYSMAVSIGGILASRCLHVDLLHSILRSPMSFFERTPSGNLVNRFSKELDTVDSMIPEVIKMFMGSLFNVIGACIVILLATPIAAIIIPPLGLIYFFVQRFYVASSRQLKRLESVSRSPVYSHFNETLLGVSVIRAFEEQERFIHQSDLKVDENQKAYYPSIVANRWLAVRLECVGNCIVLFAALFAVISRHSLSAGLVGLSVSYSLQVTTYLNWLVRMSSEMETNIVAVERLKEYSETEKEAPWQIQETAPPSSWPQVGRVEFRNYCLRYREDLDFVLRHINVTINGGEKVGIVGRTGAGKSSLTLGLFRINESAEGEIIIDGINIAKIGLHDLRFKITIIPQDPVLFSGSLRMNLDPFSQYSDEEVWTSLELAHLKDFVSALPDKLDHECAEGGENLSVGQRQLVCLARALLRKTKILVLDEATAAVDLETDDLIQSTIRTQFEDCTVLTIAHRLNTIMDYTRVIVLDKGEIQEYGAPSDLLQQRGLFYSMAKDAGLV
Sequence of UniProt P62068 (whole entry, looked up): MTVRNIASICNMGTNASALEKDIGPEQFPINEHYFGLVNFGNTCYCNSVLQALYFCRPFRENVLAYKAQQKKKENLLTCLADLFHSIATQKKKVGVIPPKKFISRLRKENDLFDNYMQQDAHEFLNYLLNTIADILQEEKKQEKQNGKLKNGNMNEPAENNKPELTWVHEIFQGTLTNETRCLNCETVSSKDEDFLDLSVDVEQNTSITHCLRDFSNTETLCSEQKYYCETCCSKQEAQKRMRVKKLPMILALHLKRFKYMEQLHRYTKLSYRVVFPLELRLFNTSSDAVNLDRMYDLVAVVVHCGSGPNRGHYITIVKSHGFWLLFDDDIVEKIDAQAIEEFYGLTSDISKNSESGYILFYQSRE

Substance | target | assay | system | setting | IC50
CC(C)NCc1ccc(C[C@@H]2NC(=O)[C@@H](N(C)C(=O)c3ccc4ccccc4c3)NC(=O)[C@H](Cc3ccccc3)NC(=O)[C@H](N)CSSC[C@@H](C(=O)N[C@@H](Cc3ccc4ccccc4c3)C(N)=O)NC(=O)[C@H](Cc3ccccc3)NC2=O)cc1 | Somatostatin receptor type 3 (SSTR3, Homo sapiens, UniProt P32745) | ligand displacement, radioligand |  | cell membranes | 112 nM
c1nc2c(NCc3cn(CCCNCCCNC4CCCCC4)nn3)nc(N3CCNCC3)nc2[nH]1 | CXCR4 | β-arrestin-2 recruitment, antagonist, luciferase complementation | MDA-MB-231 | 20 min, added: 200 ng/mL CXCL12-α | 1600 nM and ~1600 nM
NC(=O)c1cccc2c1OCCCO2 | PARP1 |  |  |  | > 2500 nM
CC1=C(COc2ccc(Br)cc2)C(=O)c2ccccc2C1=O | Thioredoxin reductase 1, cytoplasmic (TXNRD1, Homo sapiens, UniProt Q16881) | enzyme activity, inhibitor |  | pH 7.4, with preincubation | 800 nM
COc1cc2nc(NCc3ccc(CNCCCNC4CCCCCC4)cc3)nc(NC3CCNCC3)c2cc1OC | CXCR4 | ligand displacement, radioligand |  | cell membranes | 78.4 nM
Nc1nc2c(ncn2[C@@H]2O[C@H](COP(=O)(O)O)[C@@H](O)[C@H]2O)c(=O)[nH]1 | nucleoside diphosphate kinase A/B human | autophosphorylation, inhibitor | native membranes | 4 °C, biphasic curve, unreliable | ~30000 nM
Tannic acid | Genome polyprotein, NS2B-NS3 protease (Dengue virus type 3, UniProt P27915) | inhibitor, fluorogenic substrate Bz-Nle-Lys-Arg-Arg-AMC | DENV3 |  | 400 ± 30 nM
NC(=O)c1cccc2c1OCC(=O)N2 | PARP1 |  |  |  | 750 ± 90 nM
COc1ccccc1NC(=O)CSc1nnc(-c2cc3cccc(OC)c3o2)n1-c1ccccc1 | fungal tyrosinase | enzyme activity, inhibitor, dopachrome absorbance |  | pH 6.8, 37 °C, added: L-tyrosine substrate | 390 ± 1450 nM
C#Cc1cc2oc(=O)ccc2cc1OC | CYP1A2 | enzyme activity, inhibitor |  | 6 min, pH 7.6 | 48300 nM
CC(=O)CSc1n(C)c(C)c(C)[n+]1C | Coagulation factor XIII A chain (F13A1, Homo sapiens, UniProt P00488) | isopeptidase activity, inhibitor |  | form not specified, added: A101 substrate | ~250 nM
O=C(NCc1ccccc1)c1ccc(O)cc1 | FAAH | enzyme activity, inhibitor, fluorescence |  | with preincubation | 8600 nM
CCN(CC)CC1CCN(c2ncc3ncnc(Nc4ccc(F)c(Cl)c4)c3n2)CC1 | Vascular endothelial growth factor receptor 1 (FLT1, Homo sapiens, UniProt P17948) |  |  |  | > 10000 nM
O=C(Nc1cc(F)c(Cl)c(F)c1)c1cc(S(=O)(=O)N2CCOCC2)c(Cl)cc1Cl | Lysophosphatidic acid receptor 4 (LPAR4, Homo sapiens, UniProt Q99677) | Ca2+ mobilization, antagonist | CHO | added: LPA at EC50 | > 100000 nM
CC(=O)NC(CC(=O)O)c1ccccc1[N+](=O)[O-] (stereo not drawn) | alpha-glucosidase | inhibitor |  | pH 6.8, added: pNPG 1.25 mM | 57.6 ± 0.7 mg/L
O=c1oc2c(O)c(O)cc3c(=O)oc4c(O)c(O)cc1c4c23 | Cell division cycle 7-related protein kinase, with DBF4 (CDC7, Homo sapiens, UniProt O00311) | enzyme activity, inhibitor, ADP-Glo luminescence |  | added: ATP 12.5 µM | 770 nM and ~800 nM
COc1ccc(C=CC(=O)c2ccc(NC(=O)CSc3nc4ccccc4c(=O)n3-c3ccccc3)cc2)cc1 | PARP1 | enzyme activity, inhibitor, absorbance |  |  | 102 nM
O=C(/C=C/c1ccc(O)cc1)CC(=O)/C=C/c1ccc(O)cc1 | Hsd3b1 (Rattus norvegicus, UniProt P22071) | enzyme activity, inhibitor | rat testicular microsomes | lower bound from 100 µM screen, added: pregnenolone | < 100000 nM
[Zn+2] | Caspase-8 (CASP8, Homo sapiens, UniProt Q14790) | enzyme activity, inhibitor |  | NTA-buffered free compound, added: LEHD-AMC substrate | 9.25 ± 1.2 nM
COc1cccc(Cn2cc(CNC(=O)OCc3cn(Cc4cccc(OC)c4)nn3)nn2)c1 | FAAH | enzyme activity, inhibitor, fluorescence |  | cell membranes | 4.2 nM

Substance | target | assay | system | setting | IC50
COC(=O)C(Cc1ccc(CCCC(=O)NCCC(=O)Nc2ccc3nc(C)sc3c2)cc1)C(=O)OC | L-lactate dehydrogenase B chain (LDHB, Homo sapiens, UniProt P07195) | enzyme activity, inhibitor, fluorescence |  |  | > 200000 nM
CCc1nc(N)nc(N)c1-c1ccc(Cl)cc1 | Multidrug and toxin extrusion protein 2 (SLC47A2, Homo sapiens, UniProt Q86VL8) | transport, inhibitor | HEK cells transfected with SLC47A2 | 0.5 min, added: baricitinib 0.25 µM | 220 nM and 270 nM
COc1cc2nccc(Oc3ccc(NC(=O)NC4CC4)c(Cl)c3)c2cc1C(N)=O | Equilibrative nucleoside transporter 1 (SLC29A1, Homo sapiens, UniProt Q99808) | transporter uptake, inhibitor, radiometric |  |  | 7400 nM
O=C(O)C(Cc1c[nH]nn1)[C@@H]1CCN[C@H]1C(=O)O (mixture of isomers) | AMPA receptor, rat | binding | cortical synaptosomes | added: [3H]-AMPA | > 100000 nM
COc1ccc(-c2ccc3c(c2)[nH]c2ccncc23)cc1 | Microtubule-associated protein tau (MAPT, Homo sapiens, UniProt P10636) | ligand displacement, radioligand |  |  | 34.7 nM
CC1=NN(c2cccc(C(=O)O)c2)C(=O)/C1=C\c1ccc(-c2ccc(Cl)c(C(=O)NC3CC3)c2)o1 | DNA repair protein complementing XP-A cells (Homo sapiens, UniProt P23025) | binding to cisplatin-DNA, EMSA |  | concentration not given, full-length XPA | ~32000 nM
CC(=O)n1c(=O)[nH]c2ccccc21 | mbtI (Mycobacterium tuberculosis, UniProt P9WFX1) | enzyme activity, inhibitor, continuous fluorescence |  | added: chorismate | > 200000 nM
O=C(NC1CCCCC1)OCc1cn(Cc2cccc(Cl)c2)nn1 | FAAH | enzyme activity, inhibitor, fluorescence |  | cell membranes | 190 nM
CCN(CC)c1ccc(C2CC(c3ccc(Br)cc3)=NN2C(=O)CCC(=O)O)cc1 (stereo not drawn) | Replication protein A 70 kDa DNA-binding subunit (RPA1, Homo sapiens, UniProt P27694) | protein-nucleic acid interaction, inhibitor, mobility shift |  |  | > 100000 nM
C#Cc1ccc2ccc(=O)oc2c1 | CYP1A2 | enzyme activity, inhibitor |  | 6 min, pH 7.6 | 15800 nM
CN1CCN(C2=Nc3ccccc3Oc3ccc(Cl)cc32)CC1 | ABCC1 | efflux, inhibitor | SupT1-Vin overexpressing ABCC1 | added: SYTO 13 100 nM | 16200 ± 4800 nM
O=C(O)c1cc2cc(Br)ccc2c(I)c1O | Glutamate NMDA receptor; Grin1/Grin2a (Grin1/Grin2a, Rattus norvegicus, UniProt P35439+Q00959) | ion current, two-electrode voltage clamp |  | oocytes | 3170 nM
COc1ccc(-c2cc(=O)c3c(OC)c([C@@H]4O[C@H](C(=O)Nc5ccncc5)[C@@H](O)[C@H](O)[C@H]4O)c(OC)cc3o2)cc1OC | Glycogen synthase kinase-3 beta (GSK3B, Homo sapiens, UniProt P49841) | enzyme activity, inhibitor, ADP detection |  |  | 35600 nM
Cn1c(=O)c(=O)n(C)c2cc(S(=O)(=O)NNC(=O)c3ccccc3)ccc21 | Dipeptidyl peptidase 4 (DPP4, Homo sapiens, UniProt P27487) | enzyme activity, inhibitor, fluorescence |  |  | 0.095 nM
O=c1[nH]c2ccccc2n1C1CCN(CCCC(c2ccc(F)cc2)c2ccc(F)cc2)CC1 | USP46, with UAF1 (Homo sapiens, UniProt P62068) | deubiquitinase activity, inhibitor |  | no inhibition up to 114 µM, added: K63-linked diubiquitin | > 114000 nM
Oc1ccc(/C=C/c2cc(O)cc(O)c2)cc1 | DNA (cytosine-5)-methyltransferase 1 (DNMT1, Homo sapiens, UniProt P26358) | enzyme activity, inhibitor |  |  | 40000 to 200000 nM
C=CCc1ccc(O)c(-c2ccc(O)c(CC=C)c2)c1 | Tyrosine-protein phosphatase non-receptor type 1 (PTPN1, Homo sapiens, UniProt P18031) | enzyme activity, inhibitor, absorbance |  | pH 7 | 63400 nM
NC(=O)c1ccc([N+](=O)[O-])c2c1OCCO2 | PARP1 |  |  |  | > 5000 nM
O=c1[nH]c2ccccc2n1C1CCN(CCCC(c2ccc(F)cc2)c2ccc(F)cc2)CC1 | ABCC1 | efflux, inhibitor | SupT1-Vin overexpressing ABCC1 | added: SYTO 13 100 nM | 7200 ± 2600 nM
